Assay results collected from several papers.
A part holds a random share of what one study measured. Several values in a cell are separate wells, animals, samples, runs or records.
Chain of UniProt P10721 (whole entry, unmodified, looked up): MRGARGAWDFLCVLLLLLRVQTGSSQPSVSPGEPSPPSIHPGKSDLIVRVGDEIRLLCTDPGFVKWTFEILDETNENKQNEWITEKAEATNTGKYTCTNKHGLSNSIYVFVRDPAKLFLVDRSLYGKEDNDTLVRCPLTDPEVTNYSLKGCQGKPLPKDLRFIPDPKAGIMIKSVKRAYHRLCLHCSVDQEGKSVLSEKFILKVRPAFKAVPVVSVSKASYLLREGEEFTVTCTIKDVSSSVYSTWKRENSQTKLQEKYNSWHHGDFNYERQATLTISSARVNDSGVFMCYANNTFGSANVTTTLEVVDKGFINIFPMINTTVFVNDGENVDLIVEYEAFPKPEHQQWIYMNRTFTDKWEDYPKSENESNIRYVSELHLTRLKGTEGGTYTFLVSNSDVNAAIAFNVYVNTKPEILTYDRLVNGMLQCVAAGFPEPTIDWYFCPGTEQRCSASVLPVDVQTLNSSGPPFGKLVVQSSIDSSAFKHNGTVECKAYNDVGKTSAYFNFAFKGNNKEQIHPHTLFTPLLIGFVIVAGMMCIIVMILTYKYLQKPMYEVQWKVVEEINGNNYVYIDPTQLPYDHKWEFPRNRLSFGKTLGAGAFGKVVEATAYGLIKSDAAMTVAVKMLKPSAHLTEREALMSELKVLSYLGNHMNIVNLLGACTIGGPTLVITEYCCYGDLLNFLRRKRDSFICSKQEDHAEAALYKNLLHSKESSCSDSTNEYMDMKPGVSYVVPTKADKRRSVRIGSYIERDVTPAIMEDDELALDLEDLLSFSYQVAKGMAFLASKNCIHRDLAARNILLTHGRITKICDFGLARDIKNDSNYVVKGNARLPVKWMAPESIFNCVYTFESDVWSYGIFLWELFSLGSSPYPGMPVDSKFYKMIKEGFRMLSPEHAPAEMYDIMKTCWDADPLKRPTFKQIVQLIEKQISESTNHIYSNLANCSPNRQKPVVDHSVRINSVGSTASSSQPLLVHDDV
Chain of UniProt Q9UM73 (whole entry, unmodified, looked up): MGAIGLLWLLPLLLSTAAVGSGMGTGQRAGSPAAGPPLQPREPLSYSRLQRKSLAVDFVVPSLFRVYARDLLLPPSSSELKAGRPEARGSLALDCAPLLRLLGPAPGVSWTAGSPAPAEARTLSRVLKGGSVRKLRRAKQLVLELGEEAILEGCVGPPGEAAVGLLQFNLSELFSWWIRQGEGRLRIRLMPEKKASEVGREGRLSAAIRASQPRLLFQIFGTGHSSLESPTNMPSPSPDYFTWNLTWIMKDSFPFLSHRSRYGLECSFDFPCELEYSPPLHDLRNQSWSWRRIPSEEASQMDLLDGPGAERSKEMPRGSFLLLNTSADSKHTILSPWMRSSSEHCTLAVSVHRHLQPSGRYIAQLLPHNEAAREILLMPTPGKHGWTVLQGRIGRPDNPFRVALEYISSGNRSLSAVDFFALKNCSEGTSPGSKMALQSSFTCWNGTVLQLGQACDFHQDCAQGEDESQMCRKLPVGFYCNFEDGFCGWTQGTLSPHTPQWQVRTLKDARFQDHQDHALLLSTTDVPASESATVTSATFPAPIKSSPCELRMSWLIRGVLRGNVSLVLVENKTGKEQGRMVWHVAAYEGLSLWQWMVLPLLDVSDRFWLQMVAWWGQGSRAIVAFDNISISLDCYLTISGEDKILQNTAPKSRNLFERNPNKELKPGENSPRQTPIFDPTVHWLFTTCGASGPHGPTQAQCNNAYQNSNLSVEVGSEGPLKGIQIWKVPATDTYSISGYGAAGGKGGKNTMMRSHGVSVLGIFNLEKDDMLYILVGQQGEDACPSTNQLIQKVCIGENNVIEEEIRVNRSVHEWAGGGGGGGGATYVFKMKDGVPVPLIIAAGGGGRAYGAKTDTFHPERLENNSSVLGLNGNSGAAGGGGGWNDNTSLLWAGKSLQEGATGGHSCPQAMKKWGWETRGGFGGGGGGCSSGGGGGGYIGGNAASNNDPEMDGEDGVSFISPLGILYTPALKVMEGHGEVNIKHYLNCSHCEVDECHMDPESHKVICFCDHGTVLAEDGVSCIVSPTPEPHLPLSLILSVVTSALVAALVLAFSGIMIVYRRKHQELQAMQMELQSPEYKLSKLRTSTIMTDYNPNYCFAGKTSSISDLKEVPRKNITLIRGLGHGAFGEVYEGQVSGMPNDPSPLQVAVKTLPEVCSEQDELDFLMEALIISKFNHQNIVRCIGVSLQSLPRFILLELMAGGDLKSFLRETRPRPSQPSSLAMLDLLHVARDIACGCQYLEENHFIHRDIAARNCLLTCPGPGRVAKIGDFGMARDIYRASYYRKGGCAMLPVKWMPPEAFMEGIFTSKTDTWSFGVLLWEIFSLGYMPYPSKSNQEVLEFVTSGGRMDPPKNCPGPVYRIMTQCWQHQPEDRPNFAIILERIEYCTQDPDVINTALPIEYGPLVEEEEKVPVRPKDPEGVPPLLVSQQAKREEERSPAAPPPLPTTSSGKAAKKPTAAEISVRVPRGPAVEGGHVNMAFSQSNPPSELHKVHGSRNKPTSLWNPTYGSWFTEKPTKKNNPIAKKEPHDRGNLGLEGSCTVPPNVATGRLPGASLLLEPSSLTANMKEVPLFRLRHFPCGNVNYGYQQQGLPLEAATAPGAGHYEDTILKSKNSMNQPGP
Chain of UniProt Q86Z02 (whole entry, looked up): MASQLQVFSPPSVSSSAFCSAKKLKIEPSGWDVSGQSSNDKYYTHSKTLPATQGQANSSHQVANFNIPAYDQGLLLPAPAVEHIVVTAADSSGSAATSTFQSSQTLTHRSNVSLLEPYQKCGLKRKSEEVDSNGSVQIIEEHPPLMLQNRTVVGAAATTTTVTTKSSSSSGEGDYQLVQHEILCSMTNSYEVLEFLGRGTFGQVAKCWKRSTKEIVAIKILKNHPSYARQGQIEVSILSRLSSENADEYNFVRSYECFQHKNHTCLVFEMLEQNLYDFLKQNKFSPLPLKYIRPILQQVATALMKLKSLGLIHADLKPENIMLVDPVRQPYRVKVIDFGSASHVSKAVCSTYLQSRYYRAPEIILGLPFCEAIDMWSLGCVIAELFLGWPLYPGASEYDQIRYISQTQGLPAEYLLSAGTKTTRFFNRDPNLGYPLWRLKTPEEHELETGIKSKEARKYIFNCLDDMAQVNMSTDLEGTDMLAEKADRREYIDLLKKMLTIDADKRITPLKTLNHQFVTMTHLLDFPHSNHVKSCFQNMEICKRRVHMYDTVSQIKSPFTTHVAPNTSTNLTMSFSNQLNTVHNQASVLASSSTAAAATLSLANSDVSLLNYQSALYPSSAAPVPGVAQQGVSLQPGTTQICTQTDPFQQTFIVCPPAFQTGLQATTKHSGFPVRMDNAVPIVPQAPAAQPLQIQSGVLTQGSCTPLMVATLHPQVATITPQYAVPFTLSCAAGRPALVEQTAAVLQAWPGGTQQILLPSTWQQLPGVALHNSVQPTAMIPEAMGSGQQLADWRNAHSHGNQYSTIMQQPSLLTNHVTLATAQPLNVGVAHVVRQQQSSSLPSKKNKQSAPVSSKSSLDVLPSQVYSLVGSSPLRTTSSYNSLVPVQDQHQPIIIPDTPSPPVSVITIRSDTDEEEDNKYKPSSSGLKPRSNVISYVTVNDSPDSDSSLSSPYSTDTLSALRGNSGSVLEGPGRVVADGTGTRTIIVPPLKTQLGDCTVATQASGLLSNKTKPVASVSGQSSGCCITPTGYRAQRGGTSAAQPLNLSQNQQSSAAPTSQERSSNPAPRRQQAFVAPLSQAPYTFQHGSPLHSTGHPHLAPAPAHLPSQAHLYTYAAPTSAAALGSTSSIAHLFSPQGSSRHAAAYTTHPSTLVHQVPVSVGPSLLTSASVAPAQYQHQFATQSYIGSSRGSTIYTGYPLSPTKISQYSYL
Chain of UniProt O00506 (whole entry, looked up): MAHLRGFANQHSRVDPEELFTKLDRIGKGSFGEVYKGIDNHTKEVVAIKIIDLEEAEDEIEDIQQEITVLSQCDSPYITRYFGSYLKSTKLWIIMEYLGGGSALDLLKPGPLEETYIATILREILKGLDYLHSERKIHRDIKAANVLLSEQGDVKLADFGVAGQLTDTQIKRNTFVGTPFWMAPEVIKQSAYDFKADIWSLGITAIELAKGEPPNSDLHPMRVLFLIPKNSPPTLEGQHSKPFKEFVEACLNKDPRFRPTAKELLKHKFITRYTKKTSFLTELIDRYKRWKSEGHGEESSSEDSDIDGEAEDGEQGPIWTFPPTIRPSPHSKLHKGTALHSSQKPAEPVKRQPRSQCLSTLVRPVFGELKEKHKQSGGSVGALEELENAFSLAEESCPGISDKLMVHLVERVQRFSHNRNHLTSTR
Chain of UniProt P53667 (whole entry, looked up): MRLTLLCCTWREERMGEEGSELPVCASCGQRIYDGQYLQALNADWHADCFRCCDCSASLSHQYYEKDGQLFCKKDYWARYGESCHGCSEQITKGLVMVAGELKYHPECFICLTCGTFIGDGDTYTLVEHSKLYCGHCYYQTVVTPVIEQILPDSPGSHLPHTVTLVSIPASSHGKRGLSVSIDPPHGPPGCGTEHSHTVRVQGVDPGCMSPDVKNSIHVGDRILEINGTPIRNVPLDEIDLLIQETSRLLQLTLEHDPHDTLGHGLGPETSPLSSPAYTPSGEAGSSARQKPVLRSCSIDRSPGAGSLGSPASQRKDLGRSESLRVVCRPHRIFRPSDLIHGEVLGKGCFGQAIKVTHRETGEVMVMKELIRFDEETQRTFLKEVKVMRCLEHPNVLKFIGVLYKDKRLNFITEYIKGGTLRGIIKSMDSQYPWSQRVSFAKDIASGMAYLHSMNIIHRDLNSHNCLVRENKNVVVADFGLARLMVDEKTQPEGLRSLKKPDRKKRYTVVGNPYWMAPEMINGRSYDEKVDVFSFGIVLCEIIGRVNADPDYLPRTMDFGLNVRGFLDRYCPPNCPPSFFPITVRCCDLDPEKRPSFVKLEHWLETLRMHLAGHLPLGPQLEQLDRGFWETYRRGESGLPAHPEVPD

Block 1
Cell line: A-375
Tested at: 100 µM
Time: 18 h
The viability of `CN(N=O)C(=O)N[C@@H](C=O)[C@@H](O)[C@H](O)[C@H](O)CO` is reported as 105%.
With `Cc1nc2c([nH]1)-c1ccccc1N(C(=O)c1ccc(NC(=O)c3ccccc3-c3ccccc3)cc1)CC2` the viability was 70.3%.
`CCCCNc1cc(C(=O)O)cc(S(N)(=O)=O)c1Oc1ccccc1` gave a viability of 109%.
The viability of `CC12CC3CC(C)(C1)CC(N)(C3)C2` is reported as 76.2%.
For `c1ccc2[nH]c(-c3cscn3)nc2c1`, the viability was 95.8%.
The viability of `Cc1c(N(C)C)c(=O)n(-c2ccccc2)n1C` is reported as 92.2%.
`Nc1ncnc2c1ncn2[C@@H]1O[C@H](CO)[C@@H](O)[C@@H]1O` gave a viability of 92.9%.
With `CN1CCC(=C2c3ccccc3CC(=O)c3sccc32)CC1` the viability was 76.1%.
For `COc1c(C)c2c(c(O)c1C/C=C(\C)CCC(=O)OCCN1CCOCC1)C(=O)OC2`, the viability was 81.1%.
With `CN[C@@H]1[C@@H](O[C@H]2O[C@H](CO)[C@@H](N)[C@H](O)[C@H]2O)O[C@H]2C[C@@H](N)[C@@H](O[C@H]3[C@H](O)[C@@H](O)[C@H](N)C[C@@H]3N)O[C@@H]2[C@@H]1O` the viability was 106%.

Block 2
Structure (SMILES): O=C1NC(=O)/C(=C/c2ccc3nccnc3c2)S1
Observed: enzyme activity
Action: inhibitor
Tested at: 0.5 µM
Baseline: control
Proto-oncogene tyrosine-protein kinase Src (SRC, Homo sapiens, UniProt P12931) — remaining activity: 102%.
It gave 99.3% for remaining activity (Serine/threonine-protein kinase 25 (STK25, Homo sapiens, UniProt O00506)).
Serine/threonine-protein kinase N1 (PKN1, Homo sapiens, UniProt Q16512) — remaining activity: 101%.
Serine/threonine-protein kinase TAO3 (TAOK3, Homo sapiens, UniProt Q9H2K8) — remaining activity: 93.1%.
Tyrosine-protein kinase Fyn (FYN, Homo sapiens, UniProt P06241) — remaining activity: 95.3%.
For Tyrosine-protein kinase Fer (FER, Homo sapiens, UniProt P16591): remaining activity read 96.2%.
The remaining activity was 93.1% (Serine/threonine-protein kinase MRCK alpha (CDC42BPA, Homo sapiens, UniProt Q5VT25)).
The remaining activity was 108% (Insulin receptor (INSR, Homo sapiens, UniProt P06213)).
The remaining activity was 91.2% (Tyrosine-protein kinase ITK/TSK (ITK, Homo sapiens, UniProt Q08881)).
The remaining activity was 87.7% (PAS domain-containing serine/threonine-protein kinase (PASK, Homo sapiens, UniProt Q96RG2)).
RAC-alpha serine/threonine-protein kinase (AKT1, Homo sapiens, UniProt P31749) — remaining activity: 98.3%.
For Tyrosine-protein kinase Fgr (FGR, Homo sapiens, UniProt P09769): remaining activity read 96.8%.
It gave 92.4% for remaining activity (Serine/threonine-protein kinase NLK (NLK, Homo sapiens, UniProt Q9UBE8)).
Megakaryocyte-associated tyrosine-protein kinase (MATK, Homo sapiens, UniProt P42679) — remaining activity: 90.5%.
For MAP/microtubule affinity-regulating kinase 3 (MARK3, Homo sapiens, UniProt P27448): remaining activity read 94.3%.
The remaining activity was 93.3% (ALK tyrosine kinase receptor (ALK, Homo sapiens, UniProt Q9UM73)).
It gave 111% for remaining activity (Serine/threonine-protein kinase Nek11 (NEK11, Homo sapiens, UniProt Q8NG66)).
It gave 108% for remaining activity (Vascular endothelial growth factor receptor 3 (FLT4, Homo sapiens, UniProt P35916)).
Cyclin-dependent kinase 3, with cyclin E (CDK3, Homo sapiens, UniProt Q00526) — remaining activity: 91.7%.
The remaining activity was 87.4% (LIM domain kinase 1 (LIMK1, Homo sapiens, UniProt P53667)).
cAMP-dependent protein kinase catalytic subunit PRKX (PRKX, Homo sapiens, UniProt P51817) — remaining activity: 89.2%.
It gave 104% for remaining activity (Homeodomain-interacting protein kinase 1 (HIPK1, Homo sapiens, UniProt Q86Z02)).

Block 3
Compound: C[C@@H]1[C@H](O)[C@@H](C)/C=C/C=C/C=C/C=C/C=C/C=C/C=C/[C@H](O[C@@H]2O[C@H](C)[C@@H](O)[C@H](N)[C@@H]2O)C[C@@H]2O[C@](O)(C[C@@H](O)C[C@@H](O)[C@H](O)CC[C@@H](O)C[C@@H](O)CC(=O)O[C@H]1C)C[C@H](O)[C@H]2C(=O)O
Organism: Leishmania donovani
Strain: DD8
Sample: promastigotes
33330 µM, 72 h — promastigote number: 1240 and 1550.
330 µM, 24 h — promastigote number: 845000 and 856000.
It gave 1470 and 1480 for promastigote number (33330 µM, 24 h).
It gave 1250 and 1240 for promastigote number (66660 µM, 48 h).
The promastigote number was 1350 and 1560 (16660 µM, 24 h).
For 3330 µM, 24 h: promastigote number read 13700 and 13500.
The promastigote number was 1590 and 1250 (16660 µM, 72 h).
The promastigote number was 2.04e+06 and 2.06e+06 (60 µM, 24 h).

Block 4
SMILES: O=C(Nc1cccnn1)N1CCC(=Cc2cccc(Oc3ccc(C(F)(F)F)cn3)c2)CC1
Tested at: 1 µM
The remaining binding was 100% (Tyrosine-protein kinase ZAP-70 (ZAP70, Homo sapiens, UniProt P43403); cell-free assay, competition with immobilised ligand).
The remaining binding was 84% (Serine/threonine-protein kinase MRCK gamma (CDC42BPG, Homo sapiens, UniProt Q6DT37); competition binding).
The remaining binding was 100% (Tyrosine-protein kinase ABL1, non-phosphorylated (ABL1, Homo sapiens, UniProt P00519, F317I); binding, competition with immobilised ligand).
Cyclin-dependent kinase-like 3 (CDKL3, Homo sapiens, UniProt Q8IVW4); cell-free assay, competition with immobilised ligand — remaining binding: 81%.
The remaining binding was 100% (ALK tyrosine kinase receptor (ALK, Homo sapiens, UniProt Q9UM73, L1196M); cell-free assay, competition with immobilised ligand).
Phosphatidylinositol 5-phosphate 4-kinase type-2 gamma (PIP4K2C, Homo sapiens, UniProt Q8TBX8); cell-free assay, competition with immobilised ligand — remaining binding: 75%.
The remaining binding was 100% (NT-3 growth factor receptor (NTRK3, Homo sapiens, UniProt Q16288); cell-free assay, competition with immobilised ligand).
The remaining binding was 100% (Serine/threonine-protein kinase PLK4 (PLK4, Homo sapiens, UniProt O00444); cell-free assay, competition with immobilised ligand).
It gave 65% for remaining binding (Phosphatidylinositol 4,5-bisphosphate 3-kinase catalytic subunit alpha isoform (PIK3CA, Homo sapiens, UniProt P42336, M1043I); cell-free assay, competition with immobilised ligand).
It gave 76% for remaining binding (Cyclin-dependent kinase 18 (CDK18, Homo sapiens, UniProt Q07002); cell-free assay, competition with immobilised ligand).
Transient receptor potential cation channel subfamily M member 6 (TRPM6, Homo sapiens, UniProt Q9BX84); cell-free assay, competition with immobilised ligand — remaining binding: 98%.
The remaining binding was 74% (Calcium/calmodulin-dependent protein kinase type II subunit gamma (CAMK2G, Homo sapiens, UniProt Q13555); cell-free assay, competition with immobilised ligand).
Mitogen-activated protein kinase kinase kinase 20 (MAP3K20, Homo sapiens, UniProt Q9NYL2); cell-free assay, competition with immobilised ligand — remaining binding: 95%.
Protein kinase C iota type (PRKCI, Homo sapiens, UniProt P41743); cell-free assay, competition with immobilised ligand — remaining binding: 81%.
It gave 75% for remaining binding (Mast/stem cell growth factor receptor Kit (KIT, Homo sapiens, UniProt P10721, V559D); cell-free assay, competition with immobilised ligand).
The remaining binding was 87% (eIF-2-alpha kinase GCN2, C-terminal kinase domain (EIF2AK4, Homo sapiens, UniProt Q9P2K8, S808G); cell-free assay, competition with immobilised ligand).
It gave 100% for remaining binding (Mast/stem cell growth factor receptor Kit, autoinhibited (KIT, Homo sapiens, UniProt P10721); cell-free assay, competition with immobilised ligand).
Serine/threonine-protein kinase RIO1 (RIOK1, Homo sapiens, UniProt Q9BRS2); cell-free assay, competition with immobilised ligand — remaining binding: 100%.
For Activin receptor type-1-like (ACVRL1, Homo sapiens, UniProt P37023); cell-free assay, competition with immobilised ligand: remaining binding read 77%.
It gave 81% for remaining binding (Dual specificity tyrosine-phosphorylation-regulated kinase 2 (DYRK2, Homo sapiens, UniProt Q92630); cell-free assay, competition with immobilised ligand).
Serine/threonine-protein kinase Chk2 (CHEK2, Homo sapiens, UniProt O96017); cell-free assay, competition with immobilised ligand — remaining binding: 94%.
It gave 100% for remaining binding (Homeodomain-interacting protein kinase 4 (HIPK4, Homo sapiens, UniProt Q8NE63); cell-free assay, competition with immobilised ligand).
For Protein kinase C theta type (PRKCQ, Homo sapiens, UniProt Q04759); cell-free assay, competition with immobilised ligand: remaining binding read 67%.
The remaining binding was 100% (Serine/threonine-protein kinase Nek2 (NEK2, Homo sapiens, UniProt P51955); cell-free assay, competition with immobilised ligand).
Tyrosine-protein kinase ABL1, phosphorylated (ABL1, Homo sapiens, UniProt P00519, H396P); cell-free assay, competition with immobilised ligand — remaining binding: 100%.

Excerpt of the above (block 1):
The viability of `CN(N=O)C(=O)N[C@@H](C=O)[C@@H](O)[C@H](O)[C@H](O)CO` is reported as 105%.
With `Cc1nc2c([nH]1)-c1ccccc1N(C(=O)c1ccc(NC(=O)c3ccccc3-c3ccccc3)cc1)CC2` the viability was 70.3%.
`CCCCNc1cc(C(=O)O)cc(S(N)(=O)=O)c1Oc1ccccc1` gave a viability of 109%.
The viability of `CC12CC3CC(C)(C1)CC(N)(C3)C2` is reported as 76.2%.
For `c1ccc2[nH]c(-c3cscn3)nc2c1`, the viability was 95.8%.
The viability of `Cc1c(N(C)C)c(=O)n(-c2ccccc2)n1C` is reported as 92.2%.
`Nc1ncnc2c1ncn2[C@@H]1O[C@H](CO)[C@@H](O)[C@@H]1O` gave a viability of 92.9%.
With `CN1CCC(=C2c3ccccc3CC(=O)c3sccc32)CC1` the viability was 76.1%.
For `COc1c(C)c2c(c(O)c1C/C=C(\C)CCC(=O)OCCN1CCOCC1)C(=O)OC2`, the viability was 81.1%.
